Measured values of several laboratories.
Compare with care: the assays were run in different laboratories. “And” joins repeats or separate records; there may be more than shown. Numbers after ± are the reported error.

COP(=O)(OC)OC[C@H]1OC(O)(COP(=O)(O)O)[C@@H](O)[C@@H]1O (some centres unmarked) — cell proliferation (HepG2 sgCTRL; CCK-8; concentration not given; relative to: control): 61.7% and 45.9% and 67.2%
Cc1[nH]c(=S)[nH]c(=O)c1/N=N/c1nnc(S)s1 — inhibition (Vero; cell viability, MTT; 1.25 µg/mL): 15.4 ± 1.42%
C=CC(=O)N1CCCC(n2c(=O)c3ncccc3n(Cc3ccc(Oc4ccccc4)cc3)c2=O)C1 (centres unmarked) — log2 fold change (Rec1; refers to: JUN; concentration not given; relative to: untreated): 1.05
O=C(C[Se]C(=O)c1cc2ccccc2s1)Nc1cccc(C(F)(F)F)c1 — mean TGI (NCI60 ovarian subpanel; total growth inhibition, inhibitor; five-dose): 3.37 µM
CC(=O)OC[C@H]1O[C@@H](n2cc(CSc3nc4ccccc4n3Cc3cn([C@@H]4O[C@H](COC(C)=O)[C@@H](OC(C)=O)C(OC(C)=O)[C@H]4OC(C)=O)nn3)nn2)[C@H](OC(C)=O)C(OC(C)=O)[C@@H]1OC(C)=O (stereo in doubt) — cytotoxicity (HEK293; MTT; 125 ppm): 77.7%
CC[C@H](CO)Nc1nc(NCc2ccc(-c3ccccn3)cc2)c2ncn(C(C)C)c2n1 — log2 fold change (MOLT-4; tandem mass tag proteomics, refers to: Q5SWA1; 1 µM, 5 h; relative to: DMSO): -2.12
N#Cc1cccc(/C=C/C(=O)c2ccc(O)cc2)c1 — fold change (U-87 MG; refers to: CDCA7; concentration not given; relative to: untreated): 0.056
COC(=O)[C@H](C)NC(=O)[C@H](C)NC(=O)c1csc(-c2cccnc2)n1 — EC50 (SK-OV-3; cell growth or viability): > 30 µM
Cn1ncc2cc(-c3cncc(Cl)c3N3CCC4(CCNC4=O)CC3)ccc21 — log2 fold change (LS174T; gene expression, microarray, refers to: NOD2 (CARD15) mRNA; concentration not given, 24 h; relative to: untreated cells): 3.38
CCN(C(=O)c1cc(F)ccc1Oc1nncnc1N1CCC2(C1)CN([C@H](CCCN(C)CCOC)C(C)C)C2)C(C)C — GI50 (SF-268; brain; 72 h): > 10 µM
Cc1ccc([N+](=O)[O-])cc1S(=O)(=O)N(C)/N=C/c1cnc2ccc(Br)cn12 — activation z-score (HuT78; IL-6 signalling pathway, NanoString IPA; 50 nM, 10 h; direction not given): -3.11
COC1CN([C@H]2CC[C@H]([C@@]3(C)Oc4c(Cl)cc(C(=O)NCc5c(SC)cc(C)[nH]c5=O)c(C)c4O3)CC2)C1 — GI50 (J82; cell growth or viability, ATP luminescence; 18 days): > 10 µM
C1=[N+]2CCCC[N+]3=Cc4ccc5[n]4[Au-]23[n]2c1ccc2-c1nc2ccccc2nc1-5.F[P-](F)(F)(F)(F)F — TGI (IGROV-1; NCI60 five-dose screen): 4 -log M
COC(=O)c1cc(NC2=NC(=O)C(=Cc3ccc(N(C)C)cc3)S2)ccc1OC(C)=O — mRNA level (A549; refers to: CRIP1; 2.93 µM, 24 h; relative to: DMSO): 200 fold change
CC(C)c1ccc(N(C)c2ccc3c(c2)OCC[C@H]3CNc2cnccc2C(=O)O)cc1 — IC50 (NCI-H1355; cell growth or viability, ATP luminescence; 7 days): 0.0206 µM
CNS(=O)(=O)Nc1nccc(Cc2c(C)c3ccc(Oc4ncccc4F)cc3oc2=O)c1F — IC50 (NMC-G1; cell viability, CellTiter-Glo; 7 days): > 1 µM
CCN(CC)CC(=O)Nc1cccc(-n2cc(-c3ccc4ccc(-c5cn(-c6cccc(NC(=O)CN(CC)CC)c6)nn5)cc4c3)nn2)c1 — fold regulation (RCC4; PCR array, refers to: TGFA; 5 x IC50, 6 h, normoxia; relative to: untreated): -1.29 fold
CCOc1cncc(-c2ccc(NC(=O)C3(c4ccnc(NS(=O)(=O)C5CC5)n4)CCOCC3)nc2)n1 — IC50 (JURL-MK1; cell proliferation, CellTiter-Glo; 72 h, myeloid haematological cancer): 0.043 µM
O=C(C[Se]C(=O)c1ccc2ccccc2c1)Nc1cccc(C(F)(F)F)c1 — mean growth percent (NCI60 non-small-cell lung subpanel; cell growth; 10 µM, 48 h, one-dose): -86.1%
Cc1ncsc1-c1ccc(C(C)NC(=O)C2CC(O)CN2C(=O)C(NC(=O)CCCCCCCCCCN2CCCC(Nc3ncc(Cl)c(Nc4ccccc4S(=O)(=O)C(C)C)n3)C2)C(C)(C)C)cc1 (centres unmarked) — log2 fold change (22Rv1; RNA-seq, refers to: TSSK6 mRNA; concentration not given; relative to: DMSO): -2.1
Cn1ncc(-c2ccc3c(=O)[nH]nc(CN)c3c2)c1-c1c(F)c(Cl)cc(OC2CC2)c1C#N — IC50 (A3/KAW; cell viability; 120 h, relative IC50): 0.03 µM
O=CCNCCOn1c(=O)n(OCCNCCO)c(=O)n(OCCNCCOn2c(=O)n(OCCNCCO)c(=O)n(OCCNCCO)c2=O)c1=O — viability (A549; cell growth or viability, MTT; 25 µg/mL, 24 h): 48.4%
CO[C@@H]1[C@@H](OC(N)=O)[C@@H](O)[C@H](Oc2ccc3c(O)c(NC(=O)c4ccc(O)c(CC=C(C)C)c4)c(=O)oc3c2C)OC1(C)C — colony survival (HCT-116 BRCA2 wild-type; 75 µM, mean of replicates A, B; relative to: untreated): 87.4%
O=C(Nc1nnc2c1c(-c1ccc(Cl)cc1)nc1sc(=Cc3ccco3)c(=O)n12)c1ccccc1 (mixture of isomers) — cell growth (IGROV-1; SRB; 10 µM, NCI60 single-dose screen; relative to: untreated): 40.4%
CC(=O)Oc1ccccc1C(=O)[Se]CC(=O)Nc1cccc(C(F)(F)F)c1 — GI50 (NCI60 ovarian subpanel; cell growth, inhibitor; five-dose): 2.85 µM
Cc1cc(Cl)cc(-c2ccnc3cc(CN4C(=O)C5C(C4=O)C5(C)C)sc23)c1C[C@@H]1CNCCO1 (some centres unmarked) — viability (CHP-212 parental; SRB; 625 nM): 36.9%
O=C(C[Se]C(=O)c1cccnc1Nc1cccc(C(F)(F)F)c1)Nc1cccc(C(F)(F)F)c1 — mean growth percent (NCI60 ovarian subpanel; cell growth; 10 µM, 48 h, one-dose): -84.2%
COc1ccccc1-c1ccncc1C(=O)Nc1nnc(OCc2ccc(Cl)cc2)s1 — colony survival (PEO1 BRCA2-mutant; 1.00 µM, added: olaparib 0 µM; relative to: vehicle control): 49.5%
COc1ccc2c(c1)c(CC(=O)[Se]CC(=O)Nc1cccc(C(F)(F)F)c1)c(C)n2C(=O)c1ccc(Cl)cc1 — mean growth percent (NCI60 non-small-cell lung subpanel; cell growth; 10 µM, 48 h, one-dose): -91.5%
CN1CCCNC(=O)c2cccc(c2)C(=O)NCCCN(C)CCCNc2cccc3c2C(=O)c2cccc(c2C3=O)NCCC1 — log2 fold change (SAS; RNA-Seq, refers to: NPIPB2 mRNA; 1 µM, 6 h; relative to: untreated cells): 3.41
O=C(C[Se]C(=O)c1cc2ccccc2o1)Nc1cccc(C(F)(F)F)c1 — GI50 (NCI60 ovarian subpanel; cell growth, inhibitor; five-dose): 1.75 µM
CN(C)c1ccc(-n2cc(COC(=O)[C@@]3(C)C=C(C(=O)OC(C)(C)C)C(=O)CC3)nn2)cc1 — pRSK/tubulin ratio (HeLa; quantitative western blot; concentration not given, 0 (unit not given), added: EGF): 0.0823

For quick reference, copied from above:
O=C(C[Se]C(=O)c1cc2ccccc2s1)Nc1cccc(C(F)(F)F)c1 — mean TGI (NCI60 ovarian subpanel; total growth inhibition, inhibitor; five-dose): 3.37 µM
COc1ccc2c(c1)c(CC(=O)[Se]CC(=O)Nc1cccc(C(F)(F)F)c1)c(C)n2C(=O)c1ccc(Cl)cc1 — mean growth percent (NCI60 non-small-cell lung subpanel; cell growth; 10 µM, 48 h, one-dose): -91.5%
Cn1ncc(-c2ccc3c(=O)[nH]nc(CN)c3c2)c1-c1c(F)c(Cl)cc(OC2CC2)c1C#N — IC50 (A3/KAW; cell viability; 120 h, relative IC50): 0.03 µM
